Experimental data from different studies.
A part holds a random share of what one study measured.

Set 1
Target: Ras GTPase-activating protein-binding protein 1, full length (G3BP1, Homo sapiens, UniProt Q13283)
Sequence of UniProt Q13283 (whole entry, looked up): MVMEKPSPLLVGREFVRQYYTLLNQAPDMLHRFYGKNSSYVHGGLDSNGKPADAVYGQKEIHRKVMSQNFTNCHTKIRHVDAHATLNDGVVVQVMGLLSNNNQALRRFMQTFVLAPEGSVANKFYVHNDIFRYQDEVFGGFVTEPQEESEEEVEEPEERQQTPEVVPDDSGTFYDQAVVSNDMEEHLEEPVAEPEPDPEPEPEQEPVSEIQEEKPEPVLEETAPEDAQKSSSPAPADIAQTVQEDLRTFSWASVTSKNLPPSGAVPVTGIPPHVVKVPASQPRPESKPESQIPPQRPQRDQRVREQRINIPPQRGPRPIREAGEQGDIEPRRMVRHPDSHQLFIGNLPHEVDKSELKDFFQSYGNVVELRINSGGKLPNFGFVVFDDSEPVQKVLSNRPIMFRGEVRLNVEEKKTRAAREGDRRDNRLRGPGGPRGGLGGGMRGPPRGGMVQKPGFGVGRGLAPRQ
Method: RNA Bind-n-Seq
Molecule type: RNA
Medium: in vitro
Concentration: 200 nM
Setting: whole 134-nt RNA, ends assumed
Added: 150 mM KCl
Baseline: input library
Direction: higher = stronger binding
Constant ends, left off below: GGGAGUUCUACAGUCCGACGAUC … UGGAAUUCUCGGGUGUCAAGG
Strand | log2 enrichment
CACAGACAACACGCACCCACACAGACACAGAGGGAUGGGGUUGGGAUGGGGACAGGGUGCACAGCAGGGCGGGGUAGGACCCCAGCCCCU | 1.83
CCUCAAGUCCUGUGCUACACAUCGUAUGUACCGAAUCGGGGAGGAGGGGAGGAAAGUAUUAUGUUACGCCGUUCGGAUCUGCACUUCCAG | 0.658
GCAGGAAGUAAAAACAAAUGGAAAUGCUUCGGAUAGUGGCAGGGGUGGGGGUUGCUAAGGAAAGGGUUGGAUGGGAGUGGGUAAAGAGUU | 0.87
GUCCUGUGCUACACAUCGUAUGUACCGAAUCGGGAAAGGGAAAAAAAGGGAAAAAGGGAAAGUAUUAUGUUACGCCGUUCGGAUCUGCAC | -0.417
GGAGUGCCGUGAGCAGGCCGCGGGAACGUCGCCGUCACCUUGUCUCGGGGCCUCGGCGCUGCUUCCCGCCAAAACACGUUUACCGCGCGC | -1.8
AGUCCUGUGCUACACAUCGUAUGUACCGAAUCGGGUGGGAAAAAGGGUUUUUUUGGGAAAGUAUUAUGUUACGCCGUUCGGAUCUGCACU | -0.14

Set 2
Target: Sal-like protein 4, full length isoform B (SALL4, Homo sapiens, UniProt Q9UJQ4-2, residues 1-616)
Method: universal PBM
Molecule type: double-stranded DNA, one strand shown
Medium: in vitro
Concentration: not given
Setting: 8-mer, flanks averaged, mean of replicates
Direction: higher = stronger binding
Strand | E-score
AAGCTCTG | -0.14
CGCCTTAA | -0.127
CAGAGCCA | -0.106
AAAGGTGG | -0.0131
GGCATCTA | 0.00085

Set 3
Target: Prothrombin, mature alpha-thrombin (F2, Homo sapiens, UniProt P00734)
Method: aptamer microarray, sandwich
Molecule type: DNA with 2'F-ANA
Medium: in vitro
Concentration: 200 nM
Setting: whole 15-mer aptamer, many near background
Added: Cy3 exosite-II aptamer, 400 nM
Direction: higher = stronger binding
Strand: GGTTGGTGTGGTTGG
Modification | mean fluorescence intensity
2'F-ANA at 1 5 9 13 14 | 53.4 a.u.
2'F-ANA at 1 2 5 6 12 15 | 104 a.u.
2'F-ANA at 2 3 8 9 11 12 | 847 a.u.
2'F-ANA at 2 3 13 15 | 822 a.u.
2'F-ANA at 2 4 10 11 | 136 a.u.
2'F-ANA at 1 3 5 6 7 10 11 12 14 15 | 75.5 a.u.

Single results of other studies
Molecule | target | test | test system | conditions | scale | endpoint | value
PhoQ, residues 284 288 289 292 302 303 SCKMEA | PhoP, residues 12 14 15 18 19 NIMAP (Escherichia coli, UniProt P23836) | Sort-seq, refers to: YFP reporter | E. coli | PhoQ-PhoP variant library, added: 10 µM Mg2+ | baseline: high Mg2+ state, higher = stronger signaling | fold induction | 0.746

Excerpt of the above (set 3):
Modification | mean fluorescence intensity
2'F-ANA at 1 3 5 6 7 10 11 12 14 15 | 75.5 a.u.
